Published values of several laboratories.
Lines come from different studies, so protocols differ. ± gives the spread as reported.

CC[C@H](C)[C@H](NC(=O)[C@H](CCCNC(=N)N)NC(=O)[C@H](CCCCN)NC(=O)[C@H](Cc1ccc(O)cc1)NC(=O)[C@H](CC(=O)O)NC(=O)[C@H](C)NC(=O)CNC(=O)CCOCCOCCOCCNC(=O)CN1CCN(CC(=O)O)CCN(CC(=O)O)CCN(CC(=O)O)CC1)C(=O)N[C@H](C(=O)N[C@H](C(=O)N[C@@H](CCCCN)C(=O)N[C@H](C(=O)N[C@@H](CC(N)=O)C(N)=O)C(C)C)C(C)C)[C@@H](C)O [copper-64 labelled] — tissue uptake (ex vivo gamma counting; C57BL/6J male mice, B16-F10 tumour, bone; intravenous, 1.85 MBq, 100 min): 0.508 ± 0.049 %ID/g
CC(C)C[C@@H](NC(=O)[C@@H](CCCNC(=N)N)NC(=O)[C@@H](Cc1c[nH]cn1)NC(=O)[C@@H](Cc1c[nH]c2ccccc12)NC(=O)[C@@H](Cc1c[nH]cn1)NC(=O)[C@@H](Cc1ccccc1)NC(=O)[C@H](NC(=O)[C@@H](Cc1ccc(O)cc1)NC(=O)CNC(=O)CNC(=O)CCOCCOCCOCCNC(=O)CN1CCN(CC(=O)O)CCN(CC(=O)O)CC1)[C@H](C)O)C(=O)N[C@H](CC(N)=O)C(=O)N1CCC[C@@H]1C(=O)O [gallium-68 labelled] — tissue uptake (gamma counting; C57BL/6 mice, male, intestines; intravenous, 1.85 MBq, 120 min): 1.19 ± 0.35 %ID/g
C[C@H](O)[C@@H](NC(=O)[C@H]1CCCN1C(=O)[C@@H](CCCCN)NC(=O)[C@@H](CO)NC(=O)[C@@H](Cc1ccc(O)cc1)NC(=O)[C@@H](CC(N)=O)NC(=O)CCOCCOCCOCCNC(=O)CN1CCN(CC(=O)O)CCN(CC(=O)O)CCN(CC(=O)O)CC1)C(=O)N[C@H](CC(=O)O)C(=O)N[C@H](CCCNC(=N)N)C(=O)N[C@H](CCC(N)=O)C(=O)N[C@H](Cc1ccc(O)cc1)C(=O)N[C@H](Cc1c[nH]cn1)C(=O)N[C@H](Cc1ccccc1)C(N)=O [gallium-68 labelled] — tissue uptake (BALB/c nude mice U-87 MG tumour, stomach; intravenous, 1.85 MBq, 2 h, radiolabelled): 0.08 ± 0.03 %ID/g
CC[C@H](C)[C@H](NC(=O)[C@@H](Cc1c[nH]c2ccccc12)NC(=O)[C@@H]1CCCN1C(=O)[C@H](CCCCN)NC(=O)[C@H](CCCCN)NC(=O)CCNC(=O)CCNC(=O)CN1CCN(CC(=O)O)CCN(CC(=O)O)CCN(CC(=O)O)CC1)C(=O)N[C@@H](C[Si](C)(C)C)C(=O)O [gallium-68 labelled] — tissue uptake (ex vivo biodistribution; nude mice, HT-29 xenograft, salivary glands; 90 min, together with: levocabastine 0.5 µmol): 0.36 ± 0.1 %ID/g
CC[C@H](C)[C@H](NC(=O)[C@H](CCCCN)NC(=O)CNC(=O)[C@H](CC(C)C)NC(=O)[C@H](Cc1ccccc1)NC(=O)[C@H](CCCCN)NC(=O)[C@H](CO)NC(=O)[C@H](Cc1ccccc1)NC(=O)[C@H](Cc1c[nH]c2ccccc12)NC(=O)[C@H](CCC(N)=O)NC(=O)[C@@H](NC(=O)[C@H](Cc1ccccc1)NC(=O)CCCCCNC(=O)CN1CCN(CC(=O)O)CCN(CC(=O)O)CCN(CC(=O)O)CC1)C(C)C)C(=O)N[C@@H](CCC(=O)O)C(=O)N1CCC[C@H]1C(=O)N[C@H](CC(=O)O)C(=O)N[C@H](C(=O)N[C@@H](CO)C(=O)N[C@@H](CCC(N)=O)C(=O)N[C@H](C(=O)N[C@@H](CCC(N)=O)C(=O)N[C@@H](CC(=O)O)C(=O)N1CCC[C@H]1C(=O)N[C@@H](CC(N)=O)C(=O)N[C@@H](CC(=O)O)C(=O)N[C@@H](CCC(N)=O)C(=O)N[C@@H](Cc1ccc(O)cc1)C(=O)N[C@@H](CCC(=O)O)C(=O)N1CCC[C@H]1C(=O)N[C@@H](Cc1ccccc1)C(=O)O)C(C)C)C(C)C [copper-64 labelled] — tissue uptake (C57BL/6 mice, male, MC-38 tumour-bearing, blood; 2 h, vehicle-treated): 1.21 ± 0.09 %ID/g
CCCC[C@H]1C(=O)N(C)[C@@H](CCCC)C(=O)N[C@@H](CCCNC(=O)CN2CCN(CC(=O)O)CCN(CC(=O)O)CCN(CC(=O)O)CC2)C(=O)N[C@H](C(=O)NCC(N)=O)CSCC(=O)N[C@@H](Cc2ccc(O)cc2)C(=O)N(C)[C@@H](C)C(=O)N[C@@H](CC(N)=O)C(=O)N2CCC[C@H]2C(=O)N[C@@H](Cc2c[nH]cn2)C(=O)N[C@@H](CC(C)C)C(=O)N(C)CC(=O)N[C@@H](Cc2c[nH]c3ccccc23)C(=O)N[C@@H](CO)C(=O)N[C@@H](Cc2c[nH]c3ccccc23)C(=O)N1C [gallium-68 labelled] — tissue uptake (NOD/SCID mice with CHO-hPD-L1 xenograft, heart; 120 min post injection): 2.57 ± 1.32 %ID/g
CC[C@H](C)[C@H](NC(=O)[C@H](CCCNC(=N)N)NC(=O)[C@H](CCCCN)NC(=O)[C@H](Cc1ccc(O)cc1)NC(=O)[C@H](CC(=O)O)NC(=O)[C@H](C)NC(=O)CNC(=O)CCOCCOCCOCCNC(=O)CN1CCN(CC(=O)O)CCN(CC(=O)O)CCN(CC(=O)O)CC1)C(=O)N[C@H](C(=O)N[C@@H](CC(C)C)C(=O)N[C@@H](CCCCN)C(=O)N[C@H](C(=O)N[C@@H](CC(N)=O)C(N)=O)C(C)C)[C@@H](C)O [copper-64 labelled] — tissue uptake (ex vivo gamma counting; C57BL/6J male mice, B16-F10 tumour, bone; intravenous, 1.85 MBq, 20 min): 0.824 ± 0.321 %ID/g
CSCC[C@H](NC(=O)CNC(=O)[C@H](CCCCN)NC(=O)[C@H](CC(C)C)NC(=O)[C@@H]1CCCN1C(=O)[C@H](CO)NC(=O)[C@H](Cc1c[nH]cn1)NC(=O)[C@H](Cc1c[nH]c2ccccc12)NC(=O)[C@H](CCCNC(=N)N)NC(=O)[C@H](CC(C)C)NC(=O)[C@H](CCCNC(=N)N)NC(=O)[C@H](Cc1c[nH]c2ccccc12)NC(=O)[C@H](CS)NC(=O)CCCCCNC(=O)CN1CCN(CC(=O)O)CCN(CC(=O)O)CCN(CC(=O)O)CC1)C(=O)O [copper-64 labelled] — tissue uptake (ex vivo biodistribution; male C57BL/6J mice, kidney; intravenous, 1.85 MBq, 2 h, B16-F10 tumour-bearing): 39.9 %ID/g

Some of these lines once more:
CC(C)C[C@@H](NC(=O)[C@@H](CCCNC(=N)N)NC(=O)[C@@H](Cc1c[nH]cn1)NC(=O)[C@@H](Cc1c[nH]c2ccccc12)NC(=O)[C@@H](Cc1c[nH]cn1)NC(=O)[C@@H](Cc1ccccc1)NC(=O)[C@H](NC(=O)[C@@H](Cc1ccc(O)cc1)NC(=O)CNC(=O)CNC(=O)CCOCCOCCOCCNC(=O)CN1CCN(CC(=O)O)CCN(CC(=O)O)CC1)[C@H](C)O)C(=O)N[C@H](CC(N)=O)C(=O)N1CCC[C@@H]1C(=O)O [gallium-68 labelled] — tissue uptake (gamma counting; C57BL/6 mice, male, intestines; intravenous, 1.85 MBq, 120 min): 1.19 ± 0.35 %ID/g
